# Results of several laboratories.
# Each numbered part is a random draw from the data of one study; scales do not carry over between parts. Substitutions count along the parent as printed.

# Sample 1 — technique: RNA Bind-n-Seq; form: RNA; matrix: in vitro; concentration: 365 nM; baseline: no-protein control; direction: higher = stronger binding
# Target: RNA binding protein fox-1 homolog 2, RRM domain, GST-SBP tag (RBFOX2, Homo sapiens, UniProt O43251-10, residues 100-194)
# Notes: natural RNA segment, single round, ends assumed
# Shared flanks, not repeated: GGGAGUUCUACAGUCCGACGAUC … UGGAAUUCUCGGGUGCCAA
# Construct (chain): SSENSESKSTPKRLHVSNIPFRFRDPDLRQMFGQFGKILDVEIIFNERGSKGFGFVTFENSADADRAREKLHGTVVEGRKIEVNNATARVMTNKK
Sequence,RBNS enrichment (R)
UUCGAUACAUAAUUAUGGUUUCUGUAUAAGAAGGUAUUGGUUAAGUAUCACGUUUUCAGCCAUGUUGUGUAAGAGACCUGCUUUCAAGUGUGGUUGUAAAAGCAAGCCCA,0.279
GAAGAUGUUUUGCGUUGCUACGUGAAUCAGUGGAUGACUCAUAUUUCACUUGCAUAUGAAAUAUAAGGCAGUUAACAUCUUGUUUGUGGCUUAAGCAAGGACAUUAAUCC,0.645
AAAAUGAAUGUAUUUCUGUUUUUGAAGAGAAUAAUUUUUUUCUCUAGGGAGAGGCGAGGUUACAGUGUUUAUAUUUUGGAACCUUCCUGAAGGUGUGAAAUUGUAAAUAU,1.68
UACAAGGACCCAGCCUGAGAUGGUCCCAUCUGCAGGGCCCCGCACCAGUUGGAGCAGAUGCCUCCCCACCACCAAUUGCCAAAGGUCCAAUAAAAUGCCUCAACCACGGA,0.626
ACCCCCAUCCCACUGCUCUCUCUGAGCUGCAGCUGUAUGUAUAGCAGAUUAGGGGCUCCCUGGUUAGAGGGUUGUAAGGUACAGGGUGCUGUCCAGCCUCUGAGUACCAU,0.205
CUGUCAAAAUAAUGUUAUGCUUUUGAAAGAUAAAGCCUGCUCAAUCUAGGGAUCCAGUUGUGCAGUAGAGUUCAGACUUCUCAUCCAAUCUUAUAUUGUAGGCAUUUCUC,0.86
CUCAAAUACAUUGCCUCGGCAUGAACAUUAUUGUUAAUAUAAAUUGCACAUGGUCAUCGAGUGAAUUAUAAAAUUUUGAAAAGAUGCAGCUGCCCAAUAUUAACAGUUUU,0.569
GUGAUUUACAGAAAUAAAAUCCCAGUGUCCACUCAAUGCUGGUCUGACUCAGAUCCAGUUGGGUGGUUGGAGUGCUUCCCCAAAUAACCACUUAUUUUUUAAAGCGUCAU,0.411
GUUCUCUGUAAUUACAUGUCACCACACCAGGCUUUAGUGGCCAGGAGGGAUUUGACCUUGUUCCCAAGGGAUUGAGAGUCUAGUGAGCAGCCCAGGGGCAAAGGCAGUCA,0.436
GAUUUGCCAUUUUACUGAAAUGGAAAAUGAUUUUUUUUCAAAUAAAUACUUAUAUUGUUCAUGUUCCAAUUAUUCAGUUCCUUUAUGAGGGAUCGUUUCUAUUUCUGCCU,0.589
ACUUAUGAUACUCAUCCCAUGUCUCAAUAAGAGUGUCUUUUCUUUCUGGAUGUGUUCUCUUACUCCCUCUUACCACCAUACUUUUUGCUCUCUUCUCCUGCAAGCGUAGU,0.817
GAGGGAGAAGACUGCACGAGAGUGAUGCGCAUUUCGAGUCUGCUUUUCGAUAGUUGAUGUCUUCUUGCCUUUUUAAAAAACCAUAUAUAUAUAAAGUUUAGGGUUUGCUC,3.36

# Sample 2 — technique: protein-binding microarray; form: double-stranded DNA, one strand shown; matrix: in vitro; concentration: 250 nM; notes: 60-bp whole probe; with: salmon DNA 0.4 mg/ml; baseline: random background probes; direction: higher = stronger binding; shared flanks, not repeated: GCCTAGCAC … GTCTTGATTCGCTTGACGCTGCTG
# Target: Interferon regulatory factor 7, full length, phosphomimetic (IRF7, Homo sapiens, UniProt Q92985, residues 1-503, S101K/S471D/S472D/S475D/S476D/S477D/S483D/S484D/S487D)
# Construct (chain): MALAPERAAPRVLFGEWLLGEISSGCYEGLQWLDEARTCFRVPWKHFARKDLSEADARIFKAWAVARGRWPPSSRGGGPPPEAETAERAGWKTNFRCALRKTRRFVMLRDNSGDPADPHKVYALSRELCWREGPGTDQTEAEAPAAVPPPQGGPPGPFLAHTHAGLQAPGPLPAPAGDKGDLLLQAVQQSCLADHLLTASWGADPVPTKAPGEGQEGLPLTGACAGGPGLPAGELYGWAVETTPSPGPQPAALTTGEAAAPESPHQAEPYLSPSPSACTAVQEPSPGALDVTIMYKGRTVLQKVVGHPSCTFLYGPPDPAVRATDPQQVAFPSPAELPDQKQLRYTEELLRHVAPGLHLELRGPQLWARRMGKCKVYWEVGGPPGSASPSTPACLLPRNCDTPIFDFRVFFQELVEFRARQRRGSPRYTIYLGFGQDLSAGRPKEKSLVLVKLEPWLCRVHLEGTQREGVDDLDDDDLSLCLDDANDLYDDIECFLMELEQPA
Sequence,log fluorescence [z-score]
GACGATTTCAGACTGGACACGTGCTAG,0.194
TCCAGGGCGGTGGGTGGCCCGTGCTAG,-1.2
GACGGTATCGGGTTTCAGGACGTGCTA,1.65
GACGGTCTCCTTTTCCTGAAGTGCTAG,1.65
TTCTATCTCTGTTTTTGCTTGTGCTAG,0.635
GACGGTATCGGTTATCGGGACGTGCTA,1.24
TTTGTCATCTATAATGGATATGTGCTA,-0.0921
TCTGTTTTCTCCATGGAAGAGTGCTAG,2.14
GACGGTCTCCTTATCATGACGTGCTAG,0.144
GACGGTATCGATCTCGGGACGTGCTAG,0.69
GAAGGTATCCTTTTCCTGACGTGCTAG,1.31
TTTACTTTCTGAATGCCCTTGTGCTAG,1.32
GACGATTTCAGTTCCGAGATGTGCTAG,0.749
TTAGATCCCAGACTGGATTAGTGCTAG,0.173
GACGATATCAGTTTCGAGCCGTGCTAG,1.69
GACAGTATCGACTATCGGGACGTGCTA,-0.243

# Sample 3 — technique: RNA Bind-n-Seq; form: RNA; matrix: in vitro; concentration: 1 µM; notes: whole 134-nt RNA, ends assumed; with: 150 mM KCl; baseline: input library; direction: higher = stronger binding
# Target: Ras GTPase-activating protein-binding protein 1, RRM domain (G3BP1, Homo sapiens, UniProt Q13283)
# UniProt Q13283, sequence (whole entry, looked up): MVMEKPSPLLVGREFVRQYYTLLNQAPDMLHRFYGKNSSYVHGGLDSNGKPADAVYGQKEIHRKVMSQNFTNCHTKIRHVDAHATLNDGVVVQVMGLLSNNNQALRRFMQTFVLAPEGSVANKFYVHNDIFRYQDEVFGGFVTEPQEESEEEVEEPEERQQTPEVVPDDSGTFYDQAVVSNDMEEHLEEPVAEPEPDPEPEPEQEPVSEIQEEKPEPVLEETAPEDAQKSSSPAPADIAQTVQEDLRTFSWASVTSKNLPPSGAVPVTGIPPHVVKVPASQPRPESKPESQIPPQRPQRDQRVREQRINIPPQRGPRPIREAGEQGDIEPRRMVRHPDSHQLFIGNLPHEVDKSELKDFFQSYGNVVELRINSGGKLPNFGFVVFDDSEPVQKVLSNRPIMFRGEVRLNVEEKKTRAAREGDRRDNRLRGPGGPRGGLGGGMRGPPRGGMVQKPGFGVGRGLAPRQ
# Shared flanks, not repeated: GGGAGUUCUACAGUCCGACGAUC … UGGAAUUCUCGGGUGUCAAGG
Sequence,log2 enrichment
CCUGUGCUACACAUCGUAUGUACCGAAUCGGGUUUUUUUGGUUUUUUUGGGUUUUUUUGGGAAAGUAUUAUGUUACGCCGUUCGGAUCUG,-0.27
UGGCUGGCUGUGGCCUCACAGCUGAGGACUGCAAGGACCUUGCCUUUGGGCUGAGAGCCAACCAGACCCUGACCGAGCUGGACCUGAGCU,-0.676
AGUCCUGUGCUACACAUCGUAUGUACCGAAUCGGGAAAGGGAAAAAGGGAAAAAGGGAAAGUAUUAUGUUACGCCGUUCGGAUCUGCACU,0.373
ACCAUGCAGGUGGGCAUCUUUGGGAAGUGGGGCAAGGGGGGAAUAGGGAGGGGGGUAACACUUUGGGAACAGGUGGUCCCAGGUCGUUUC,1.01
CAAGUCCUGUGCUACACAUCGUAUGUACCGAAUCGGGGAGGGGAAAGGGGUGGGGAAAGUAUUAUGUUACGCCGUUCGGAUCUGCACUUC,0.947
UCCUGUGCUACACAUCGUAUGUACCGAAUCGGGGUUUGGGGUUUGGGGAAAAAAAGGGGAAAGUAUUAUGUUACGCCGUUCGGAUCUGCA,1.05
AGUCCUGUGCUACACAUCGUAUGUACCGAAUCGGUUUUUUUGGUUUUUGGAAAAAGGAAAGUAUUAUGUUACGCCGUUCGGAUCUGCACU,-0.0964
UUCCUCAAGUCCUGUGCUACACAUCGUAUGUACCGAAUCGGAGGAGGGAGGAAAGUAUUAUGUUACGCCGUUCGGAUCUGCACUUCCAGC,-0.226
CCUCAAGUCCUGUGCUACACAUCGUAUGUACCGAAUCGGGAGGAGGGGAGGGAAAGUAUUAUGUUACGCCGUUCGGAUCUGCACUUCCAG,0.455
GUCCUGUGCUACACAUCGUAUGUACCGAAUCGGGGUUUGGGGAAAAAAAGGGGUGGGGAAAGUAUUAUGUUACGCCGUUCGGAUCUGCAC,0.819
GUCCUGUGCUACACAUCGUAUGUACCGAAUCAAAUUUUUAAAUUUUUUUAAACCCAAAAAAGUAUUAUGUUACGCCGUUCGGAUCUGCAC,-1.52
GUCCUGUGCUACACAUCGUAUGUACCGAAUCGGGUUUUUUUGGGAAAGGGAAAAAGGGAAAGUAUUAUGUUACGCCGUUCGGAUCUGCAC,-0.091
CCUGUGCUACACAUCGUAUGUACCGAAUCGGGCCCCCCGGGGCCCCCCGGGCCCCCCGGGAAAGUAUUAUGUUACGCCGUUCGGAUCUGC,-0.652
AGUCCUGUGCUACACAUCGUAUGUACCGAAUCGGAAAAGGGAAAAGGGGAAAAGGGGAAAGUAUUAUGUUACGCCGUUCGGAUCUGCACU,0.239

# Sample 4 — technique: DHFR PCA, dose-response; matrix: yeast; notes: Hill fit, mean, not affinity; with: (+)-ABA, dose series; direction: lower = more sensitive
# Target: ABI1, truncated, D143A, DHFR fusion (Arabidopsis thaliana, UniProt P49597)
# Starting sequence: PYL1, truncated, DHFR fusion (Arabidopsis thaliana, UniProt Q8VZS8); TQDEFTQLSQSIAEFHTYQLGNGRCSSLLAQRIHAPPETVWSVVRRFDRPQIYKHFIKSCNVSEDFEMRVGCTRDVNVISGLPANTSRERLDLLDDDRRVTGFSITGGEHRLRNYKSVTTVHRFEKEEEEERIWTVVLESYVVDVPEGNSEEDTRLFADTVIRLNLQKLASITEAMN
Variant,ABA EC50 [µM]
F47V,766
T1L,1.96
I133R,3.99
S59M,21.7
S63P,3.15
D3C,3.55
T106Y,2.76
F66G,2.11
R155I,3.11
L28S,101
D144E,14.9
T160I,19.8
T39R,1.97
E127M,3.01
I52Q,2.48
Q2D,0.954
N114D,70.9
L164N,7.62
C25R,385
G81Q,244
N114M,239

# Sample 5 — technique: protein binding microarray; form: double-stranded DNA, one strand shown; matrix: in vitro; concentration: not given; baseline: not given; direction: higher = stronger binding
# Target: Histone acetyltransferase KAT6A, both winged helices, GST fusion (KAT6A, Homo sapiens, UniProt Q92794, residues 1-181)
# Notes: 8-mer, flanks averaged, mean of 2 arrays, mostly near background
# Construct (chain): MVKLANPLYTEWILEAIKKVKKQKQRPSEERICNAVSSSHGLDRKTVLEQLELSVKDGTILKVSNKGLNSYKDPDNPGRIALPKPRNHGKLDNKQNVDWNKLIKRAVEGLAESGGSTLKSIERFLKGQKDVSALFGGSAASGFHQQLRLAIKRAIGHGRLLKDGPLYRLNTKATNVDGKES
Sequence,E-score
CAATCGTC,-0.0308
TTACTGAA,-0.0633
TGGATTAA,-0.127
CAAGGACA,-0.119
AACTCGTA,-0.173
CGGACATA,0.192
GCCTCCAA,-0.0997
GCCACGCA,0.16
AAGAGTCT,-0.155
TGCCTAAA,-0.213
CATAGATA,-0.14
CTTACGTC,-0.0751
AAGAGTGA,-0.235
ACTTTCGA,-0.0224
GCAGAAAC,0.0689
ATGGAAAA,-0.0946
TAAACGCA,0.0748
CCAACTAA,-0.139
AGGGGGAC,-0.187
ATCGATAG,-0.0527
ACGGCTGG,0.0888
CCTGCTCG,-0.0539
CCAGAGCG,0.0556

# Repeated from above (sample 4):
Variant,ABA EC50 [µM]
S63P,3.15
D3C,3.55
T106Y,2.76
F66G,2.11
R155I,3.11
L28S,101
D144E,14.9
T160I,19.8
T39R,1.97
E127M,3.01
I52Q,2.48
Q2D,0.954
N114D,70.9
L164N,7.62
